Published values gathered from unrelated publications.
Numbered parts are unrelated; each lists some results of a single study. Positions count from the first letter of the parent shown.
Chain of UniProt Q96BR1 (whole entry, looked up): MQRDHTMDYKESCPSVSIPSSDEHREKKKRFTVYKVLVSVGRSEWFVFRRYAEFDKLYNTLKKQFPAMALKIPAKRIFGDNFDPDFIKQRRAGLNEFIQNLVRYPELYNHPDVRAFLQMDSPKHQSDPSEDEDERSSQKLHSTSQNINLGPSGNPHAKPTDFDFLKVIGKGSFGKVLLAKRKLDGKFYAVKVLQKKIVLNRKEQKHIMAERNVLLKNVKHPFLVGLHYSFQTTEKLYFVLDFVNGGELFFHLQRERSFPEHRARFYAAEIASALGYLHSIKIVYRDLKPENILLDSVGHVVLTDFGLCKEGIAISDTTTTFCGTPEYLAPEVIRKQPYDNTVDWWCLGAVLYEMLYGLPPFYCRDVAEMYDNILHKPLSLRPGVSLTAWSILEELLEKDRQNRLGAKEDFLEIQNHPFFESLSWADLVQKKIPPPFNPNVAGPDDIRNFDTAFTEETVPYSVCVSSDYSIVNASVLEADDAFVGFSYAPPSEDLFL

Block 1
Target: CCND3, cyclin fold, Cln2 fusion (human)
Technique: yeast growth competition, sequencing
Sample: yeast
Setting: weak parent motif
Baseline: not given
Reading: higher = stronger binding
Starting sequence: CDAN1 docking peptide (human); RGARSQLFPPTEA; partner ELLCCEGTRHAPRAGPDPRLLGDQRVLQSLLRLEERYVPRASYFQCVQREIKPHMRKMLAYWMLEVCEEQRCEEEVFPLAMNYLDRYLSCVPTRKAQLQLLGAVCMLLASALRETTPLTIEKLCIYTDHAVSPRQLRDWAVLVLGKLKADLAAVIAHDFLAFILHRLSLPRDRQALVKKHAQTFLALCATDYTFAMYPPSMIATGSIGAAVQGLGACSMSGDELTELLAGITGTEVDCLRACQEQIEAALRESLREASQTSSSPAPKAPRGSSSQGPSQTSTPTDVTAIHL
Variant | normalised enrichment score
RAARSQLFPPTEA [G2A] | 0.107
RGARSQLFPPTAA [E12A] | 0.342
RGAASQLFPPTEA [R4A] | 0.0814
RGARAQLFPPTEA [S5A] | -0.0529
RGARSALFPPTEA [Q6A] | -0.266
AGARSQLFPPTEA [R1A] | 0.0882

Block 2
Target: Ras GTPase-activating protein-binding protein 1, full length (G3BP1, Homo sapiens, UniProt Q13283)
Chain of UniProt Q13283 (whole entry, looked up): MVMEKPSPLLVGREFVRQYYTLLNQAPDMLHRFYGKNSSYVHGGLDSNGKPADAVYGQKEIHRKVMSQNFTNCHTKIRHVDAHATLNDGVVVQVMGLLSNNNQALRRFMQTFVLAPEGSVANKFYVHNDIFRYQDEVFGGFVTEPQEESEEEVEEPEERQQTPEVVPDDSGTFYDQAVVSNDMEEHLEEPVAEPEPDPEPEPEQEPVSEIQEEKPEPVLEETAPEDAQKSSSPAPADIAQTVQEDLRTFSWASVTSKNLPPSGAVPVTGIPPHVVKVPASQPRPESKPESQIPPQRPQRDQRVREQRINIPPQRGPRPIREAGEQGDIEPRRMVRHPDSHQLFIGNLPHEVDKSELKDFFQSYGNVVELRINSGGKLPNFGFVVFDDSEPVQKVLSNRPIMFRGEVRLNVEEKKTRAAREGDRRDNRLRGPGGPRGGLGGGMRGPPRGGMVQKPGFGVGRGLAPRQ
Technique: RNA Bind-n-Seq
Form: RNA
Sample: in vitro
Tested at: 200 nM
Setting: whole 134-nt RNA, ends assumed
With: 150 mM KCl
Baseline: input library
Reading: higher = stronger binding
Strand | log2 enrichment
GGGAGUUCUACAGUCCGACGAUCUGGGAGGUGGAUUUUGUUUAUUUUUUUAGCUCAUUUCCAGGGGUGGGAAUUUUUUUUUAAUAUGUGUCAUGAAUAAAGUUGUUUUUGUAAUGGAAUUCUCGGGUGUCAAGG | 0.298
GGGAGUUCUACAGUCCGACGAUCAAGUCCUGUGCUACACAUCGUAUGUACCGAAUCGGGGAGGGGUGGGGUUUUUGGGGAAAGUAUUAUGUUACGCCGUUCGGAUCUGCACUUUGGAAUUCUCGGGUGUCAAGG | 0.415
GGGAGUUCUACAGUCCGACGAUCGUCCUGUGCUACACAUCGUAUGUACCGAAUCGGGGCCCCCGGGGCCCCCGGCCCCCGGGAAAGUAUUAUGUUACGCCGUUCGGAUCUGCAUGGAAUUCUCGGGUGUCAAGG | -0.728
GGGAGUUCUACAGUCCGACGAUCCAAGUCCUGUGCUACACAUCGUAUGUACCGAAUCGGGUGGGAAAAAGGGAAAGGGAAAGUAUUAUGUUACGCCGUUCGGAUCUGCACUUCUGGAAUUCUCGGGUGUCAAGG | 0.599
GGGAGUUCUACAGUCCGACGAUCCUCAAGUCCUGUGCUACACAUCGUAUGUACCGAAUCGGGCGGGGCGGGCGGGGAAAGUAUUAUGUUACGCCGUUCGGAUCUGCACUUCCAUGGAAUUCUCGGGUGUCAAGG | 1.35
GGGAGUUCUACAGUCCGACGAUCUCAAGUCCUGUGCUACACAUCGUAUGUACCGAAUCGGGAGGGUGGGUUUUUGGGAAAGUAUUAUGUUACGCCGUUCGGAUCUGCACUUCCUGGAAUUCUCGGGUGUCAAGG | 0.643
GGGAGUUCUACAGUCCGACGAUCCCUCAAGUCCUGUGCUACACAUCGUAUGUACCGAAUCGGAGGGGAGGGAGGGGAAAGUAUUAUGUUACGCCGUUCGGAUCUGCACUUCCAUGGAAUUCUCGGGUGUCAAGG | 1.46
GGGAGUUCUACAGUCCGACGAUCCAAGUCCUGUGCUACACAUCGUAUGUACCGAAUCGGGGAAAGGGGAGGGGUGGGGAAAGUAUUAUGUUACGCCGUUCGGAUCUGCACUUCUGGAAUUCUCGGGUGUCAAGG | 1.29

Block 3
Target: Prothrombin, mature alpha-thrombin (F2, Homo sapiens, UniProt P00734)
Technique: aptamer microarray, sandwich
Form: DNA with 2'F-ANA
Sample: in vitro
Tested at: 200 nM
Setting: whole 15-mer aptamer, many near background
With: Cy3 exosite-II aptamer, 400 nM
Reading: higher = stronger binding
Strand: GGTTGGTGTGGTTGG
Modification | mean fluorescence intensity [a.u.]
2'F-ANA at 1 5 8 12 13 | 84.7
2'F-ANA at 2 3 8 11 12 13 | 855
2'F-ANA at 5 6 7 8 9 11 13 15 | 55.3
2'F-ANA at 1 6 14 | 51.1
2'F-ANA at 1 4 6 9 10 11 12 14 | 73.3
2'F-ANA at 2 4 5 9 10 15 | 46.9
2'F-ANA at 1 2 3 4 5 7 10 13 14 15 | 49.9
2'F-ANA at 2 4 6 9 15 | 334

Single results of other studies
SMILES | target | observed | action | tested at | baseline | measurement | result
Nc1ncnc2n[nH]c(Nc3ccc(F)cc3)c12 | Serine/threonine-protein kinase Sgk3 (SGK3, Homo sapiens, UniProt Q96BR1) | enzyme activity | inhibitor | 0.5 µM | control | remaining activity | 102%
